Experimental data gathered from unrelated publications.
Numbered parts are unrelated; each lists some results of a single study. Changes are numbered by the printed parent chain.
Chain of UniProt Q13464 (whole entry, looked up): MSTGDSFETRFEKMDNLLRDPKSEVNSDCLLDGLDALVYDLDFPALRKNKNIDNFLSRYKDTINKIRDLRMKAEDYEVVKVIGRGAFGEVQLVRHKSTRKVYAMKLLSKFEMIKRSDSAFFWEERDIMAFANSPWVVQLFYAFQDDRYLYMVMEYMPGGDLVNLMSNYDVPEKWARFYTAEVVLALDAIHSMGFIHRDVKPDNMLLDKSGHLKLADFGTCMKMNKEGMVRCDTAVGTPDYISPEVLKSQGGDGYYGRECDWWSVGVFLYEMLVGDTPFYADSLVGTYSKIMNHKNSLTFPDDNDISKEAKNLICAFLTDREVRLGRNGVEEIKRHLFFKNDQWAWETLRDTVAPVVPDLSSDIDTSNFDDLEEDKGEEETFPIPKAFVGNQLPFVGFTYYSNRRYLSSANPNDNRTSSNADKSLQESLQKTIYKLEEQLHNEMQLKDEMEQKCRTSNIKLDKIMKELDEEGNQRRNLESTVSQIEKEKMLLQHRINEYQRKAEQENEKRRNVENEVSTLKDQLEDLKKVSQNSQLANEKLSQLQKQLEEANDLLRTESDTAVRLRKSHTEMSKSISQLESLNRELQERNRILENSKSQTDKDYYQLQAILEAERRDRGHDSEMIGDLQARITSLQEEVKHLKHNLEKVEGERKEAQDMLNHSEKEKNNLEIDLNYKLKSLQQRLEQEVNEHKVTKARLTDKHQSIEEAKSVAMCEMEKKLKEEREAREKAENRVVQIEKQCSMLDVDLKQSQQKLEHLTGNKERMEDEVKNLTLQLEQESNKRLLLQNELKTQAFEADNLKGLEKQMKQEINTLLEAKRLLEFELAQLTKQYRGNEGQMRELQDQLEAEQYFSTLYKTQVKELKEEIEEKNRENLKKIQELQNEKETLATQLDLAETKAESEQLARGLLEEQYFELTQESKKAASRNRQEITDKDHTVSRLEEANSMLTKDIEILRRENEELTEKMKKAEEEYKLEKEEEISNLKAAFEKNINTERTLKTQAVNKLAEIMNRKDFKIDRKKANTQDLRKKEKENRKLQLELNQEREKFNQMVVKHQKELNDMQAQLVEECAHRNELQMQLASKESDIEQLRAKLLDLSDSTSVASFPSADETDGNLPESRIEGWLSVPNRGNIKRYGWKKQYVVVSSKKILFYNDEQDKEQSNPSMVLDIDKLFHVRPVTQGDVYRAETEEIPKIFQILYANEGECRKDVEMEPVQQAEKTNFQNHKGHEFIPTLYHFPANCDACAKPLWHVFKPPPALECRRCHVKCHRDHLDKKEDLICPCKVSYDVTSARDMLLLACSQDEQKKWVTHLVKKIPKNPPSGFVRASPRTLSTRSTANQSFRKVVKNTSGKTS

Sample 1 — target: CCNB3, cyclin fold, Cln2 fusion (human); technique: yeast growth competition, sequencing; matrix: yeast; notes: strong parent motif; relative to: not given; reading: higher = stronger binding; parent: viral docking peptide; KGVKRKLFAEDSS
Variant | normalised enrichment score
KMVKRKLFAEDSS [G2M] | 2.29
KGVKGKLFAEDSS [R5G] | -0.552
KGVLRKLFAEDSS [K4L] | 0.462
KGVKDKLFAEDSS [R5D] | -0.0493
KGVKRLLFAEDSS [K6L] | 1
KGVKRKLFAEDCS [S12C] | 3.11
KGVKRKLFAEISS [D11I] | 1.96
KGYKRKLFAEDSS [V3Y] | 0.326

Sample 2 — effect on: binding; technique: phage display NGS; molecule type: peptide; concentration: concentration not given; notes: normalized abundance; relative to: input library
Target: UDP-N-acetylglucosamine--peptide N-acetylglucosaminyltransferase 110 kDa subunit (OGT, Homo sapiens, UniProt O15294)
Chain of UniProt O15294 (whole entry, looked up): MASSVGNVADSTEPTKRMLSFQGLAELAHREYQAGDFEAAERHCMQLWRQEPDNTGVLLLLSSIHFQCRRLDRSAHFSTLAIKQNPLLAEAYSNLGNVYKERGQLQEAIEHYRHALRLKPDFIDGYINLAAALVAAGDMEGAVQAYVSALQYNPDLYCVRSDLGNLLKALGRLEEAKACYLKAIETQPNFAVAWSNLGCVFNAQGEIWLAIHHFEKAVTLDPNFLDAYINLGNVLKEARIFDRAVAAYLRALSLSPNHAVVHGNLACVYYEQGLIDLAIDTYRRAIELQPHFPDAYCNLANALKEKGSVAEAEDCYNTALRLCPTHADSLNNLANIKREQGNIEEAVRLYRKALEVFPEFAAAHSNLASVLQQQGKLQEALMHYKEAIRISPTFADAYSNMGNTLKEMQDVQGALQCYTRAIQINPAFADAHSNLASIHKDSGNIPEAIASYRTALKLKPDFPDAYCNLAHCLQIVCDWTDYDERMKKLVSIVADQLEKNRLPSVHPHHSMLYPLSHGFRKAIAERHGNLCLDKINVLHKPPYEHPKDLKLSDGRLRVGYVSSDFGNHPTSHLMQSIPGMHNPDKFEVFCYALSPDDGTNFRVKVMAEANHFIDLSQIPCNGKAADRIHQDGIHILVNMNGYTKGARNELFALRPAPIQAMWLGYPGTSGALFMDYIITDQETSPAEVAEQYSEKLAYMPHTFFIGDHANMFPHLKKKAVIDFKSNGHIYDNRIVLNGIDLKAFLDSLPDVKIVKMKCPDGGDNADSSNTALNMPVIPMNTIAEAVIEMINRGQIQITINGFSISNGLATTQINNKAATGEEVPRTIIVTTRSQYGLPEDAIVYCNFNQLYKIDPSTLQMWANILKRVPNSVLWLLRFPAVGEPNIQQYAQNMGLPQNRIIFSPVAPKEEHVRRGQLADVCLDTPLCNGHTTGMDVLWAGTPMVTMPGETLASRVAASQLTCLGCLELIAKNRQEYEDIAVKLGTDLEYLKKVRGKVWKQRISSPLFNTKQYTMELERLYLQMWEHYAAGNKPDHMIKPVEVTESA
Sequence | enrichment fold change
VTPMHDHFHHINMSV | 7.37
HSDHSHQNHHPPHIR | 8.54
TWFQHPSNPSHINQS | 5.91
GHFPVLHNTYQHHHQ | 8.58
VEQSSPFAPQYQIQM | 20.2
SIPEVFFAPVYQIET | 8.43
ERNFTHHVHRDPHR | 5.59
HSWHYYHIEHTAAHE | 6.21

Sample 3 — target: tungstate, free oxyanion; technique: microfluidic competitive inhibition; matrix: in vitro, cell-free expressed; concentration: not given; reading: lower = stronger binding
Notes: derived from inhibition constants, unchanged parent 2230 nM
Parent: PafA, mature enzyme, eGFP fusion (Elizabethkingia meningoseptica, UniProt Q9KJX5); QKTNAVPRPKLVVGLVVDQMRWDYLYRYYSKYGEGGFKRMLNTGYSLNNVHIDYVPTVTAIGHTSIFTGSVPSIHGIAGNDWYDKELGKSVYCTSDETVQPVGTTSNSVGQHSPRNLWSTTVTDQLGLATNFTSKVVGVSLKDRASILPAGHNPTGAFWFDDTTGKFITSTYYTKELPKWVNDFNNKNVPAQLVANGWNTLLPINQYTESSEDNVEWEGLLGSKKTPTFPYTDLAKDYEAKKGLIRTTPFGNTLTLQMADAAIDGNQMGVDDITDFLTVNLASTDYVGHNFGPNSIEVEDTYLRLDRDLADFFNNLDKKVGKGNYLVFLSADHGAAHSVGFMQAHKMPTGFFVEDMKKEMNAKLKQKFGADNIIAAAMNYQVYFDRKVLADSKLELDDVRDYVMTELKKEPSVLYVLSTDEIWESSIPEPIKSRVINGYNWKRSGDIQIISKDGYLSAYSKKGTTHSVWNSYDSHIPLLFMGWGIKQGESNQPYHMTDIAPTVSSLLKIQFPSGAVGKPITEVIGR
Variant | oxyanion analog dissociation constant [µM]
D23V | 1.35
K31G | 2.25
R400G | 2.3
A362G | 2.23
V122A | 2.27
Q381V | 2.09
T521V | 3.07
G156A | 1.71

Further values, each from its own experiment
Compound | target | effect on | action | concentration | relative to | quantity | value
CCn1cnc2c(Nc3cccc(Cl)c3)nc(N[C@H]3CCCC[C@H]3N)nc21 | Rho-associated protein kinase 1 (ROCK1, Homo sapiens, UniProt Q13464) | enzyme activity | inhibitor | 0.5 µM | control | remaining activity | 96.5%

A few entries again (sample 3):
Variant | oxyanion analog dissociation constant [µM]
V122A | 2.27
